Measurements gathered from unrelated publications.
Each line is one published result; not all experiments were run side by side. Values joined by “and” are separate records of one study, mostly repeats; a detail may differ. ± gives the spread as reported.

CC1(C)CN=C(N2CCN(c3ncnc4sc(CC(F)(F)F)cc34)CC2)S1
IC50 (HD-MB03; cell growth; DMSO): 192 nM

CC(=O)O[C@H]1[C@H](OC(C)=O)[C@@H](Nc2cc3cccnc3c3ncccc23)OC[C@@H]1OC(C)=O
selectivity ratio (HFF-1 and PC-3; MTT; 48 h, dark; relative to: IC50 HFF-1 over IC50 PC-3): 10

Cc1cc(C)nc(SCC(=O)Nc2ncc(Cc3cccc(OCc4cn(Cc5ccc(OCCN6CCOCC6)cc5)nn4)c3)s2)n1
inhibition (HGC-27; cell viability, MTS; 10 µM): 60.3 ± 6.6%

Nc1cccc2c1C(=O)N(C1CCC(=O)NC1=O)C2=O (centres unmarked)
viability (bone marrow CD138+ myeloma cells; XTT; 1 µM, mean of three patients): 85%

CCCCc1oc2ccc(NS(C)(=O)=O)cc2c1C(=O)c1ccc(OCCCN(CCCC)CCCC)cc1
fold change (human embryonic stem cell aggregates; mRNA level, microarray, refers to: GRIA1; 0.5 µM, 120 h; relative to: untreated, up-regulated): 2.4 fold

CC(=O)O[C@@H]1CC[C@@]2(C)[C@@H](CC[C@]3(C)[C@@H]2C(=O)C=C2[C@@H]4[C@@H](C)[C@H](C)CC[C@]4(C)CC[C@]23C)[C@@]1(C)C(=O)O
mRNA level increase (RAW264.7; qRT-PCR, refers to: IL-10; concentration not given, unit not given, together with: LPS; relative to: LPS alone): 2.48

CCn1cc(-c2cc(Cn3ccnc3)cc3c2CCN([C@H](c2cc(OC)ccn2)C2CC2)C3=O)c(C(F)(F)F)n1
EC50 (HEC151; cell growth; 120 h): 19100 nM

CC(=O)Nc1cccc(-n2c(=O)n(C3CC3)c(=O)c3c(Nc4ccc(I)cc4F)n(C)c(=O)c(C)c32)c1
IC50 (HD-MB03; cell growth; 168 h, single agent): 21.2 nM

COc1cnc2cccc(N3CCc4c(cc(Cn5ccnc5C)cc4-c4cn(C)nc4C(F)(F)F)C3=O)c2c1
EC50 (HEC151; cell growth; 120 h): 267 nM

O=C(c1ccc2[nH]ccc2c1)N1CCN(S(=O)(=O)c2ccc3[nH]c(=O)oc3c2)CC1
6-thio-dGTP in DNA (HL-60; NUDT15 inhibitor, mass spectrometry; 10 µM, 16 h, together with: 6-thioguanine 0 µM; higher = more incorporation): 7.43 a.u.

O=C(C[C@@H](C(F)F)n1ccc(F)n1)N1CCC(O)(Cn2cnc3c(cnn3-c3ccc(F)cc3)c2=O)CC1
apoptotic cells (early plus late) (CHP-212 parental (wild-type USP7); annexin V-PI flow cytometry; 0.3 µM, 48 h): 34.8% and 40.2% and 42% and 33.2% and 27.4% and 44.3%

Cn1cc(-c2ccc(-c3cncc(Cl)c3N3CCC4(CCNC4=O)CC3)cc2)cn1
log2 fold change (COLO 205; gene expression, microarray, refers to: ILF3 mRNA; concentration not given, 2 h; relative to: untreated cells): -2.81

C=CCn1c(=O)c2cnc(Nc3ccc(N4CCN(C)CC4)cc3)nc2n1-c1ccc2c(n1)[C@@](O)(CC)CC2
G1 phase mitotic cells (NCI-H1048; flow cytometry; concentration not given): 0.08%

COc1cc(/C=C/C(=O)N2CCC=CC2=O)cc(OC)c1OC
mRNA level (MDA-MB-468; qRT-PCR, refers to: CDKN2A; 30 µM, 6 h; relative to: time zero): 129 ± 95.3%

CCn1cc(-c2cc(Cn3ccoc3=N)cc3c2CCN([C@@H](C)c2cc(OC)ccn2)C3=O)c(C(F)(F)F)n1
EC50 (LCLC-97TM1; cell growth, inhibitor; 120 h): > 30000 nM

Cc1csc(-c2nnc(Nc3ccc(Oc4ncccc4-c4ccnc(N)n4)cc3)c3ccccc23)c1
IC50 (HD-MB03; cell growth; 168 h, single agent): 1.47 nM

Cc1nc(NC(=O)N2CCC[C@H]2C(N)=O)sc1-c1ccnc(C(C)(C)C(F)(F)F)c1
Hill coefficient GR curve (HGC-27; cell growth, CellTiter-Glo; 120 h): 0.727

C=CC1=C(C)c2cc3[n-]c(cc4nc(cc5[n-]c(cc1n2)c(C)c5C=C)C(C)=C4CCC(=O)O)c(CCC(=O)O)c3C.[Zn+2]
fold change (SH-SY5Y; RNA-seq, refers to: RGS3 mRNA; 5 µM, 5 h; relative to: untreated cells): 1.65

CON(C)C(=O)N1N=C(c2cc(F)ccc2F)S[C@@]1(CCCN)c1ccccc1
IC50 (HD-MB03; cell growth; 168 h, DMSO): 4.53 nM

CCc1oc2ccccc2c1C(=O)c1cc(Br)c(O)c(Br)c1
reversal of trafficking deficit (primary rat hippocampal/cortical neuron-glia cultures; 1 µM, together with: 1 µM α-synuclein oligomers): 24.4%

Excerpt of the above:
O=C(c1ccc2[nH]ccc2c1)N1CCN(S(=O)(=O)c2ccc3[nH]c(=O)oc3c2)CC1
6-thio-dGTP in DNA (HL-60; NUDT15 inhibitor, mass spectrometry; 10 µM, 16 h, together with: 6-thioguanine 0 µM; higher = more incorporation): 7.43 a.u.
